Published values gathered from unrelated publications.
Parts stem from different laboratories: compare values within a part only.

Study 1 — technique: RNA Bind-n-Seq; form: RNA; matrix: in vitro; concentration: 1 µM; notes: whole 134-nt RNA, ends assumed; together with: 150 mM KCl; baseline: input library; reading: higher = stronger binding; measurement: log2 enrichment
Target: Ras GTPase-activating protein-binding protein 1, C-terminal RGG region (G3BP1, Homo sapiens, UniProt Q13283)
Chain of UniProt Q13283 (whole entry, looked up): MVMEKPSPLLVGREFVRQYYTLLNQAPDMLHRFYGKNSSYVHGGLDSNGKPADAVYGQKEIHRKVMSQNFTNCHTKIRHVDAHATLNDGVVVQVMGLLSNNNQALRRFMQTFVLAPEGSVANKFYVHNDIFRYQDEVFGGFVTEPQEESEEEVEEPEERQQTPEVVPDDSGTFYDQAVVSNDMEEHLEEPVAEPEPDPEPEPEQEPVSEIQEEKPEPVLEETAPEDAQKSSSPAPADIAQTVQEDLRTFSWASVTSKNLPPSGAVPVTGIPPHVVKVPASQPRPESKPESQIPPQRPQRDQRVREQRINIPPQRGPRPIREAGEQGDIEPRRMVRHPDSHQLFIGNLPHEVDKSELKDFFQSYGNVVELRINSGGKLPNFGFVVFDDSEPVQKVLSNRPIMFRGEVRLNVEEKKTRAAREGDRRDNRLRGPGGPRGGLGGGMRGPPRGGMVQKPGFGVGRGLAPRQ
Shared flanks, not repeated: GGGAGUUCUACAGUCCGACGAUC … UGGAAUUCUCGGGUGUCAAGG
AAGUCCUGUGCUACACAUCGUAUGUACCGAAUCAAAUUUUUAAAUUUAAACCCAAAAAAGUAUUAUGUUACGCCGUUCGGAUCUGCACUU: -1.19
UCUCAGCACCCUCGUGAAACUGGACAAGAAGCCAGUGGAGACCAACGGUCCUGAUGCCAAUCACGAGUACAGUACAAGCAGCCAGCAUAU: -1.02
UAAGAAGGAAAUUGAGAGGAGAAAAACUGGAAAAGAAAUGUUGGAUUAUAAAAGAAAACAAGAAGAAGAAUUAACAAAAAGAAUGCUGGA: -1.33
CUUUGUAAUGGGAACUGCCUCUUUCCUGUUGUUGUUAAUGAAAAUGUCAGAAACCAGUUAUGUGAAUGAUCUCUCUGAAUCCUAAGGGCU: -0.604
UGCUGUGUCACCGGGAACGCAAAGGCUGGGAAGAAGGCCCUUCUCAAAAUGGACUGGUGUUGCAGGGUGAGAAGCUGCCCCCUGACUUCA: -0.759
AGUCCUGUGCUACACAUCGUAUGUACCGAAUCGGGCCCCGGCCCCGGGGCCCCGGGGAAAGUAUUAUGUUACGCCGUUCGGAUCUGCACU: -2.36
UUCCUCAAGUCCUGUGCUACACAUCGUAUGUACCGAAUCGGAGGAGGUGGAAAGUAUUAUGUUACGCCGUUCGGAUCUGCACUUCCAGCA: -1.42
GCAGGAAGUAAAAACAAAUGGAAAUGCUUCGGAUAGUGGCAGGUGUGGGGGUUGCUAAGGAAAGGGUGGGAUGGGAGUGGGUAAAGAGUU: 2.37
CUGUGCUACACAUCGUAUGUACCGAAUCGGGGUUUUUUGGGUUUUUUGGGGUUUUUUGGGGAAAGUAUUAUGUUACGCCGUUCGGAUCUG: -0.912

Study 2 — technique: protein binding microarray; form: double-stranded DNA, one strand shown; matrix: in vitro; concentration: not given; baseline: not given; reading: higher = stronger binding; measurement: E-score
Target: Histone acetyltransferase KAT6A, winged helix 1, GST fusion (KAT6A, Homo sapiens, UniProt Q92794, residues 1-85)
Notes: 8-mer, flanks averaged, mean of 2 arrays, mostly near background
Residues (chain): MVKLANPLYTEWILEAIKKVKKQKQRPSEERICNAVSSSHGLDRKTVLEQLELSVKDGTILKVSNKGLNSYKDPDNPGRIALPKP
CTTGCCTA: -0.243
CCAGGCAC: -0.209
CTTAAGCC: 0.126
ACCTTCAT: -0.0361
TAAGTGCA: -0.247
ATGCCCAC: -0.181
AATGAAGA: -0.0892
ACATCAAG: -0.126
AGCCTAAT: -0.246
GATACAGA: -0.242
GTATATAA: -0.157
ACCGCGAC: 0.236
GATAACAC: 0.069
GGACCAAA: -0.22
AACCCTGG: -0.137
AACAAGCG: 0.123
TTAGATAA: -0.204
AACTATAC: 0.0374

Study 3 — technique: protein-binding microarray; form: hairpin DNA; matrix: in vitro; concentration: not given; baseline: not given; reading: higher = stronger binding; measurement: median fluorescence; shared flanks, not repeated: GAGGCCG … CGGCCTCACACTC
Target: Cyclic AMP-dependent transcription factor ATF-1, full length (ATF1, Homo sapiens, UniProt P18846, residues 1-271)
Notes: whole hairpin DNA, median over replicate spots
Target sequence (chain): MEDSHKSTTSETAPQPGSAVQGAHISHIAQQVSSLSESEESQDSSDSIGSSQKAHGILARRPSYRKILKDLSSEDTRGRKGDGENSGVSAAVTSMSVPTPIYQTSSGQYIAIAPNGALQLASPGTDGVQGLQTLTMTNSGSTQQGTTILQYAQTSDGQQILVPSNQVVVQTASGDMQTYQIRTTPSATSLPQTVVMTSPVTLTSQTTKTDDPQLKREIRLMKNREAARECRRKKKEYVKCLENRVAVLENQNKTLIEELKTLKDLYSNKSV
ACCACGTCGTGCCTCCTGGCACGACGTGGT (5mC at 9 15 29): 4470 a.u.
ACGACGGCGTGCCTCCTGGCACGCCGTCGT (5mC at 9 15 29 35): 3680 a.u.
GATCGCGTCAGCCTCCTGGCTGACGCGATC (5mC at 11): 3810 a.u.
CGGACGTCGTGCCTCCTGGCACGACGTCCG (5mC at 8 15 29 35 36): 3750 a.u.
GATGACGTCAGCCTCCTGGCTGACGTCATC (5mC at 34): 6060 a.u.
GCTGACATCAGCCTCCTGGCTGATGTCAGC: 3480 a.u.
GACGACGTCAGCCTCCTGGCTGACGTCGTC (5mC at 34): 4680 a.u.
GACGACGTCAGCCTCCTGGCTGACGTCGTC (5mC at 10): 9150 a.u.
GCTGACCGCAGCCTCCTGGCTGCGGTCAGC (5mC at 14): 3410 a.u.
GATCGCGTCAGCCTCCTGGCTGACGCGATC (5mC at 33): 5580 a.u.
GATGACGTCAGCCTCCTGGCTGACGTCATC (5mC at 13): 6010 a.u.
CGGACGTCGTGCCTCCTGGCACGACGTCCG (5mC at 15 29 35 36): 3800 a.u.
AAGACGTCGTGCCTCCTGGCACGACGTCTT (5mC at 15 29 35): 3550 a.u.
ACGACGTCCTGCCTCCTGGCAGGACGTCGT (5mC at 9 15 16 35): 3650 a.u.
GCTGACGTGAGCCTCCTGGCTCACGTCAGC (5mC at 29): 5510 a.u.
ACGACGCGGTGCCTCCTGGCACCGCGTCGT (5mC at 9 14 29 30 35): 5230 a.u.
ACGACGCGGTGCCTCCTGGCACCGCGTCGT (5mC at 9 14 29 35): 5670 a.u.

Study 4 — technique: RNA Bind-n-Seq; form: RNA; matrix: in vitro; concentration: 365 nM; baseline: no-protein control; reading: higher = stronger binding; measurement: RBNS enrichment (R)
Target: RNA binding protein fox-1 homolog 2, RRM domain, GST-SBP tag (RBFOX2, Homo sapiens, UniProt O43251-10, residues 100-194)
Notes: natural RNA segment, single round, ends assumed
Shared flanks, not repeated: GGGAGUUCUACAGUCCGACGAUC … UGGAAUUCUCGGGUGCCAA
Target sequence (chain): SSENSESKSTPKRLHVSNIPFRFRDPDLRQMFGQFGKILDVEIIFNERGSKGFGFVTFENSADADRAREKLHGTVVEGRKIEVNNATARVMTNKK
AAAGUCCCCCACUGGACUGCUUCCUCCUUAGCCCCACUGGUAUAAAUACAUCUCUCUCCAAUUUGGCUUCAAUAUGGUCUGUCAUUGUUGGGCAAGAAGGGGAGGUACAA: 0.294
GGAGAGGCCUGUGCACUGCUGAAGUUCUUGCUGAUGAUUCUAGCUGUAAACCUUUGUUGCCGCCGCAGGAAGCUGAGGCCAGCUUGUGUGUGAGCACUGGAGUGUCCAGA: 0.424
CUCAGUAAUAUACUUUAUUCUUUGAAGAUUUAAUUUAAAAACUUCAUAGAAAAUCCUUUUUUGCUUUUCCUUUUGAGACAGAGUUUUGGUAGCUCCUACCAGCCUCCAAU: 0.684
UGGGAUAUAGGAAAAGCAGUGGGCAGAGGCCUGACUGACCUGAUAUUCAAUCUGCACAAAGUCCAAGGUAUGCUAGGUUCACCAAAGUAGAUUUGCUGGACCUGAUCCCC: 0.405
UUCAUGAAUAUCUGACUUUAAUAAGUUGGUAAGGAUAUAUUUUUUUGUCUAUGUUCUGUUUCAACUUAUGUAGAUUAUUAUAAAUUGAUGUAAACCACGUGAGAGGAAAA: 0.421
UCAGGCCACGGUAAGCCCUUCCCAGCUGAGAUAUGGGUGGCAUAAUUUGAGUCUUCUGGCAACAUUUGGUGACCUACCCCAUAUCCAAUAUUUCCAGCGUUAGAUUGAGG: 0.463
UGAGUGAUGAGCACUUCCAAGCACCCCUCUGCCCUUUCUCUGUCCUUAUGCUGUCCCGGCCUCGCCAGCCCUCUGGGGCAUUGUGGGAGAUGCCUGCCAGGAAUGAGCAA: 0.714
AACCCAGAGCCUUUUAUAUGCUGGGCAAGUGCUCUACAGUUUUCACUCUUUAUUCUGAGACAGGGUCUCCCCAUGUUGCCCAGGCUGGUCUUGAACAACUGCCUCACUCU: 0.409
